{"data": "Measured values collected from several papers", "ESR1": "Estrogen receptor (ESR1, Homo sapiens, UniProt P03372)", "CNR2": "Cannabinoid receptor 2 (CNR2, Homo sapiens, UniProt P34972)", "Aequorin-1 C152S/C159S/C187S": "Aequorin-1 (Aequorea victoria, UniProt P07164, C152S/C159S/C187S)", "Kelch domain-containing protein 2": "Kelch domain-containing protein 2 (UniProt Q9Y2U9)", "PIM1": "Serine/threonine-protein kinase pim-1 (PIM1, Homo sapiens, UniProt P11309)", "note": "Compare with care: the assays were run in different laboratories. ± gives the spread as reported. Non-standard residues stand in square brackets, D forms with d. No end group written: not given here."}
{"Substance": "SVSVGMKPSPRP", "target": "HIV-1 neutralising antibody 4E10", "assay": "phage binding, M13 phage ELISA", "test system": "peptide", "setting": "concentration not given", "scale": "lower = stronger binding", "measurement": "binding titer", "value": "4.3e+07 M13/mL"}
{"Substance": "Oc1cc(O)c2c(c1)O[C@H](c1cc(O)c(O)c(O)c1)[C@H](O)C2", "target": "KDM4E (Homo sapiens, UniProt B2RXH2)", "assay": "inhibitor, FDH-coupled", "scale": "relative to: 20 µM over 2.5 µM ferrous ammonium sulfate", "measurement": "IC50 ratio", "value": 1.1}
{"Substance": "CCOC(=O)OC(=O)OCC", "target": "ADH1 (Saccharomyces cerevisiae, UniProt P00330, H45R/H49Q)", "assay": "enzyme activity, inactivator", "setting": "120 µM, pH 8.0, 30 °C, turnover number", "measurement": "remaining activity", "value": "49 s⁻¹"}
{"Substance": "Cc1cc(-c2cc(-c3cc(C)c(O)c(C)c3)c(-c3cc(C)c(O)c(C)c3)[se]2)cc(C)c1O", "target": "ESR1", "assay": "antagonist", "test system": "HEK293T", "setting": "highest tested concentration, together with: estradiol 10 nM", "scale": "relative to: estradiol alone", "measurement": "efficacy", "value": "27 ± 1%"}
{"Substance": "C1=C(/c2cncnc2)CCCNCC/1", "target": "Chrnb2/Chrna6 (Rattus norvegicus, UniProt P12390+P43143, L273S/L280S/L348M/R364A/R365A/R367A)", "assay": "ion current, agonist", "setting": "concentration not given, rat receptor, unit not given", "scale": "relative to: acetylcholine maximum current", "measurement": "efficacy", "value": "0.59 ± 0.04"}
{"Substance": "Nc1ccncc1", "target": "Kcnma1 (Mus musculus, UniProt Q08460)", "assay": "K+ current, blocker, outside-out patch, oocytes", "setting": "pH 7.0, open channel block fit, together with: Ca2+ 300 µM", "measurement": "charge movement", "value": "0.61 ± 0.03 e"}
{"Substance": "CC[C@H](C)[C@H](NC(=O)[C@@H]1CSSC[C@@H]2NC(=O)[C@H]([C@@H](C)O)NC(=O)[C@H](C(C)C)NC(=O)CNC(=O)[C@H](CC(N)=O)NC(=O)[C@@H](NC(=O)[C@@H]3CCCN3C(=O)[C@H](CC(N)=O)NC(=O)[C@H](CC(N)=O)NC(=O)[C@@H](N)CC(C)C)CSSC[C@H](NC(=O)[C@H](CCCNC(=N)N)NC(=O)[C@H](Cc3ccc(O)cc3)NC(=O)CNC(=O)[C@H](CO)NC(=O)[C@@H]3CCCN3C2=O)C(=O)N[C@@H](CO)C(=O)N[C@@H]([C@@H](C)CC)C(=O)N[C@@H](C(C)C)C(=O)N[C@@H](CC(=O)O)C(=O)N[C@@H](CCCCN)C(=O)N[C@@H](CCC(N)=O)C(=O)N1)C(=O)N[C@@H](CCCCN)C(=O)N[C@@H](CCCCN)C(=O)N[C@@H](CCC(=O)O)C(=O)O", "target": "Trpv1 (Mus musculus, UniProt Q704Y3, E571A)", "assay": "ion current, activator, whole-cell patch clamp", "test system": "HEK293T", "setting": "pH 7.2, 22 °C", "measurement": "Hill coefficient", "value": "1.02 ± 0.06"}
{"Substance": "CC(C)[C@@H](CN1CCN(c2cccc(O)c2)[C@@H](C)C1)NC(=O)c1ccc(Oc2cccc(F)c2)cc1", "target": "OPRM1 (Homo sapiens, UniProt P35372)", "assay": "antagonist", "test system": "CHO", "setting": "together with: DAMGO", "measurement": "Ke", "value": "30 ± 9 nM"}
{"Substance": "Ac-VVIA (N-acetyl)", "target": "Amyloid-beta precursor protein, Aβ42 (APP, Homo sapiens, UniProt P05067, D672Y/Y681F)", "assay": "intrinsic tyrosine fluorescence", "test system": "peptide, sodium phosphate buffer", "setting": "concentration not given, pH 7.4, 22 °C, APP 5 µM", "measurement": "fluorescence increase", "value": "48 ± 3%"}
{"Substance": "O[C@@H](CN1CC[C@H](CCOC(c2ccccc2)c2ccccc2)[C@@H](O)C1)c1ccccc1", "target": "Transporter (Slc6a2, Rattus norvegicus, UniProt Q63380)", "assay": "noradrenaline uptake, inhibitor", "test system": "rat hippocampus", "setting": "together with: [3H]noradrenaline", "measurement": "Ki", "value": "27.5 nM"}
{"Substance": "Oc1cc(-c2ccc(-c3ccc(F)c(O)c3)[se]2)ccc1F", "target": "ESR1", "assay": "antagonist", "test system": "HEK293T", "setting": "highest tested concentration, together with: estradiol 10 nM", "scale": "relative to: estradiol alone", "measurement": "efficacy", "value": "68 ± 2%"}
{"Substance": "CC(C)(NC(=O)c1nn(CCCCC#N)c2ccccc12)c1cccc(C(N)=O)c1", "target": "CNR2", "assay": "calcium mobilization, agonist", "test system": "CHO-K1 expressing Gαq16", "scale": "relative to: CP55,940 maximum", "measurement": "Emax", "value": "10 ± 3%"}
{"Substance": "Oc1ccc(-c2cc(Br)c(-c3ccc(O)c(Cl)c3)[se]2)cc1Cl", "target": "ESR2 (Homo sapiens, UniProt Q92731)", "assay": "antagonist", "test system": "HEK293T", "setting": "highest tested concentration, 24 h, together with: estradiol 10 nM", "scale": "relative to: estradiol alone", "measurement": "efficacy", "value": "125 ± 20%"}
{"Substance": "CC1=NN(c2ccccc2)C(=S)/C1=C/Nc1c(Br)cc(Br)cc1Br", "target": "srtA (Staphylococcus aureus, UniProt Q2FV99)", "assay": "enzyme activity, inhibitor", "setting": "concentration not given", "measurement": "potency improvement", "value": "~15 fold"}
{"Substance": "Cc1cc(O)ccc1-c1cc(Br)c(-c2ccc(O)cc2C)[se]1", "target": "ESR1", "assay": "antagonist", "test system": "HEK293T", "setting": "highest tested concentration, together with: estradiol 10 nM", "scale": "relative to: estradiol alone", "measurement": "efficacy", "value": "93 ± 11%"}
{"Substance": "O=C(Cc1cccc(F)c1)NC1CCOC1=O (stereo not shown)", "target": "lasR (Pseudomonas aeruginosa, UniProt P25084)", "assay": "reporter gene, agonist", "test system": "Escherichia coli JLD271/pJN105L/pSC11", "setting": "100 µM", "scale": "relative to: OdDHL 100 µM", "measurement": "activation", "value": "-2%"}
{"Substance": "Oc1cccc(-c2ccc(Cl)c(Cl)c2)c1O", "target": "Aequorin-1 C152S/C159S/C187S", "assay": "aequorin bioluminescence, inhibitor", "setting": "2 h, together with: coelenterazine", "measurement": "detection limit", "value": "47.9 µM"}
{"Substance": "CC(C)C[C@H](NC(=O)[C@H](CO)NC(=O)[C@H](CC(C)C)NC(=O)[C@@H]1CCCN1C(=O)CNC(=O)[C@H](Cc1ccccc1)NC(=O)Cc1ccc2ccccc2c1)C(=O)N[C@@H](CCCNC(=N)N)C(=O)N[C@@H](CO)C(=O)N[C@@H](CCCCN)C(=O)O", "target": "MMP9 (Homo sapiens, UniProt P14780)", "assay": "substrate, HPLC", "setting": "500 µM, 72 h, pH 7.5, 37 °C", "measurement": "hydrolysis product", "value": "100%"}
{"Substance": "Nc1nc2c(ncn2[C@H]2C[C@H](O)[C@@H](COP(=O)(O)OP(=O)(O)OP(=O)(O)O)O2)c(=O)[nH]1", "target": "Gag-Pol polyprotein, reverse transcriptase (gag-pol, Human immunodeficiency virus 1, UniProt P03366, M783V/Q690N)", "assay": "substrate", "setting": "Q91N/M184V mutant range with Q91N, together with: poly(rC) template", "scale": "relative to: wild type", "measurement": "catalytic efficiency decrease", "value": "5 to 10 fold"}
{"Substance": "VFMQPASEGTGIIAGGA", "target": "Kelch domain-containing protein 2", "assay": "native mass spectrometry", "test system": "peptide, 200 mM ammonium acetate", "setting": "20 µM Kelch domain-containing protein 2, pH 7", "scale": "relative to: total Kelch domain-containing protein 2 signal", "measurement": "fraction of protein bound", "value": "0.5%"}
{"Substance": "SGSRP[pS]TP (phospho-Ser; pS = N[C@@H](COP(=O)(O)O)C(=O)O)", "target": "CTD nuclear envelope phosphatase 1 (CTDNEP1, Homo sapiens, UniProt O95476)", "assay": "substrate, MESG-coupled phosphate release", "setting": "25 °C", "measurement": "kcat", "value": "0.024 ± 0.005 s⁻¹"}
{"Substance": "RYRHPTPMYY", "target": "PIM1", "assay": "substrate, coupled enzyme", "test system": "peptide", "setting": "pH 7.4, room temperature, together with: 1 mM ATP, 20 mM MgCl2", "measurement": "kcat/Km", "value": "14000 M⁻¹ s⁻¹"}
{"Substance": "GSSFLSPEHQRVQQRKESKKPPAKLQPK-{Gly(Biotin)} (not fully specified; biotin-labelled)", "target": "mouse GOAT H338N", "assay": "substrate", "test system": "peptide", "setting": "10 µM, 5 min", "measurement": "acyl transfer", "value": "inactive"}
{"Substance": "Oc1ccccc1-c1cc(Cl)c(Cl)c(Cl)c1Cl", "target": "Aequorin-1 C152S/C159S/C187S", "assay": "aequorin bioluminescence, inhibitor", "setting": "2 h, together with: coelenterazine", "measurement": "detection limit", "value": "0.34 µM"}
{"Substance": "CC(C)(NC(=O)c1nn(Cc2ccc(F)cc2)c2ccccc12)c1cccc(NC(N)=O)c1", "target": "CNR2", "assay": "calcium mobilization, agonist", "test system": "CHO-K1 expressing Gαq16", "scale": "relative to: CP55,940 maximum", "measurement": "Emax", "value": "34 ± 2%"}
{"Substance": "CC(C)[C@@H](CN1CCN(c2cccc(O)c2)[C@@H](C)C1)NC(=O)c1ccc(Oc2ccc(O)cc2)cc1", "target": "OPRK1 (Homo sapiens, UniProt P41145)", "assay": "antagonist", "test system": "CHO", "setting": "together with: U69593", "measurement": "Ke", "value": "8.6 ± 3.7 nM"}
{"Substance": "Cc1cc(O)ccc1-c1c[se]cc1-c1ccc(O)cc1C", "target": "ESR1", "assay": "antagonist", "test system": "HEK293T", "setting": "highest tested concentration, together with: estradiol 10 nM", "scale": "relative to: estradiol alone", "measurement": "efficacy", "value": "80 ± 10%"}
{"Substance": "COc1cccc2c1C(=O)c1c(O)c3c(c(O)c1C2=O)C[C@@](O)(C(C)=O)C[C@@H]3O[C@H]1C[C@H](N)[C@H](O)[C@H](C)O1", "target": "SLC22A5 (Homo sapiens, UniProt O76082)", "assay": "transporter uptake, inhibitor", "setting": "500 µM", "measurement": "inhibition", "value": "40.8%"}
{"Substance": "RYAHPTGMYY", "target": "PIM1", "assay": "substrate, coupled enzyme", "test system": "peptide", "setting": "pH 7.4, room temperature, together with: 1 mM ATP, 20 mM MgCl2", "measurement": "kcat/Km", "value": "1200 M⁻¹ s⁻¹"}
{"Substance": "KSQLIDKIAAGA", "target": "Kelch domain-containing protein 2", "assay": "native mass spectrometry", "test system": "peptide, 200 mM ammonium acetate", "setting": "20 µM Kelch domain-containing protein 2, pH 7", "scale": "relative to: total Kelch domain-containing protein 2 signal", "measurement": "fraction of protein bound", "value": "0.5%"}
{"Substance": "NWFNLTQTLMPR", "target": "HIV-1 neutralising antibody 4E10", "assay": "phage binding, M13 phage ELISA", "test system": "peptide", "setting": "concentration not given", "scale": "lower = stronger binding", "measurement": "binding titer", "value": "6.5e+07 M13/mL"}
{"Substance": "Nc1ncnc2c1ncn2[C@@H]1O[C@H](COP(=O)(O)OP(=O)(O)O)[C@@H](O)[C@H]1O", "target": "P2Y purinoceptor 1 (Meleagris gallopavo, UniProt P49652, F108R)", "assay": "calcium mobilisation, agonist", "test system": "1321N1 transfected", "scale": "relative to: FGD/RGD mutant over wild type", "measurement": "potency shift", "value": "> 30 fold"}
{"Substance": "MQPASEGTGIIAGGA", "target": "Kelch domain-containing protein 2", "assay": "native mass spectrometry", "test system": "peptide, 200 mM ammonium acetate", "setting": "20 µM Kelch domain-containing protein 2, pH 7", "scale": "relative to: total Kelch domain-containing protein 2 signal", "measurement": "fraction of protein bound", "value": "0.6%"}
{"Substance": "anthraquinone-neomycin", "target": "poly(dA)·2poly(dT) triplex", "assay": "ITC", "scale": "relative to: triplex minus poly(dA)·poly(dT) duplex", "measurement": "enthalpy difference", "value": "-7.8 kcal/mol"}
{"note": "For quick reference, copied from above:"}
{"Substance": "Ac-VVIA (N-acetyl)", "target": "Amyloid-beta precursor protein, Aβ42 (APP, Homo sapiens, UniProt P05067, D672Y/Y681F)", "assay": "intrinsic tyrosine fluorescence", "test system": "peptide, sodium phosphate buffer", "setting": "concentration not given, pH 7.4, 22 °C, APP 5 µM", "measurement": "fluorescence increase", "value": "48 ± 3%"}
{"Substance": "CC(C)(NC(=O)c1nn(Cc2ccc(F)cc2)c2ccccc12)c1cccc(NC(N)=O)c1", "target": "CNR2", "assay": "calcium mobilization, agonist", "test system": "CHO-K1 expressing Gαq16", "scale": "relative to: CP55,940 maximum", "measurement": "Emax", "value": "34 ± 2%"}
